Experimental data from different studies.
Every numbered part comes from another study and shows a few of its results, in no order.
UniProt Q9NWZ3, sequence (whole entry, looked up): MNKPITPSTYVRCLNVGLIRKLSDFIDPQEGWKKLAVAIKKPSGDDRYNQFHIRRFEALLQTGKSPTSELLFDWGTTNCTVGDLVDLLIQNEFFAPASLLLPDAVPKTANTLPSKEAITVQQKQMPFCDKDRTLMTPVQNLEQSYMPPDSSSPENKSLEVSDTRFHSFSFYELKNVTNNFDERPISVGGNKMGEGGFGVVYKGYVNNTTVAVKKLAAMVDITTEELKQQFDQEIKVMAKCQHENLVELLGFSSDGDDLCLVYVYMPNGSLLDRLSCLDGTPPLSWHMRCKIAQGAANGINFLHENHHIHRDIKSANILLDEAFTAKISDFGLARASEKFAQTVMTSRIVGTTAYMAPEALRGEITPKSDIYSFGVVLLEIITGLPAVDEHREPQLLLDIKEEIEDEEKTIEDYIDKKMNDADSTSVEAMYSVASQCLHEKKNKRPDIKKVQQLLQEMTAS
UniProt Q9NRM7, sequence (whole entry, looked up): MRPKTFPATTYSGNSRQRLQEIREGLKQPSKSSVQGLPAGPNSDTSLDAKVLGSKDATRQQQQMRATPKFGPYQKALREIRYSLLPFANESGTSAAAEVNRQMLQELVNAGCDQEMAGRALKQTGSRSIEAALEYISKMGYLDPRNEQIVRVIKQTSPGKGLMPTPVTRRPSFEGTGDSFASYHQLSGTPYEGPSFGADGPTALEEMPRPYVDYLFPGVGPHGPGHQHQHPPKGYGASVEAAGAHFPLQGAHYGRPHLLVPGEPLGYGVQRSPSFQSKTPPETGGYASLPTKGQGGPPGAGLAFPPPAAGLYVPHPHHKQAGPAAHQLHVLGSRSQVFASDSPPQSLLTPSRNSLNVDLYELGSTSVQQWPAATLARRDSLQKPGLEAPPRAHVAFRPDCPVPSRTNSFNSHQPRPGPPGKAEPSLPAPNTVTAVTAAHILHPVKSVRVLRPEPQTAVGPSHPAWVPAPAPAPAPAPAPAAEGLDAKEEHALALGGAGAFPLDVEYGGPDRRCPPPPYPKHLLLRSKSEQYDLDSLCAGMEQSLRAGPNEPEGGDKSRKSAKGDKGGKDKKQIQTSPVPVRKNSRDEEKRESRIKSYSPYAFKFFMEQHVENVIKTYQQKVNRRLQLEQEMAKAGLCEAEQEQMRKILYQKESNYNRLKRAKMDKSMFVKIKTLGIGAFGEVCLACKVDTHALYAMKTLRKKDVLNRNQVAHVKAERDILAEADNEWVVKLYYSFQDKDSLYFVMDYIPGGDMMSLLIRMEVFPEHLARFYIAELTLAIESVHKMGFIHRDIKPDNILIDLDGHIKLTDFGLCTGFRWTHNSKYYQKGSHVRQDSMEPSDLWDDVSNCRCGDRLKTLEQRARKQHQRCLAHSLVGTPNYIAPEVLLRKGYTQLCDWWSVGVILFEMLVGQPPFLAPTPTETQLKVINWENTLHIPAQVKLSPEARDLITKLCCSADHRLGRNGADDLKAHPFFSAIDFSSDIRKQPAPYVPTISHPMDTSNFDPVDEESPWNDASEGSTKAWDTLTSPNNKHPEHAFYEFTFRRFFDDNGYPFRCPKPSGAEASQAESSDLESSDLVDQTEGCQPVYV
UniProt P48729, sequence (whole entry, looked up): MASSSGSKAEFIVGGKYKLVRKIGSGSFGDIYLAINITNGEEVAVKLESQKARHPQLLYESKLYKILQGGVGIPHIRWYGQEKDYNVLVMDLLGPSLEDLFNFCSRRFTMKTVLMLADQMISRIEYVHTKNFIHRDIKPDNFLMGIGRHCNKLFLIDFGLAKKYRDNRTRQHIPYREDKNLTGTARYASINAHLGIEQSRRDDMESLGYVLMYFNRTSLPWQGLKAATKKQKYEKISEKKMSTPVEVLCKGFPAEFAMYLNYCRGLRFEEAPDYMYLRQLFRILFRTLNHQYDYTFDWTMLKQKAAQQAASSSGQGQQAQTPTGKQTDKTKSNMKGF

Sample 1
Compound: COc1cc(Nc2c(C#N)cnc3cc(OCCCN4CCN(C)CC4)c(OC)cc23)c(Cl)cc1Cl
Observed: enzyme activity
Action: inhibitor
Tested at: 0.5 µM
Reference: control
Quantity: remaining activity
CSNK1A1 (Homo sapiens, UniProt P48729): 49.5%
MKNK2 (Homo sapiens, UniProt Q9HBH9): 98.7%
CSNK2A1 (Homo sapiens, UniProt P68400): 116%
PRKCD (Homo sapiens, UniProt Q05655): 40.3%
PRKG1 (Homo sapiens, UniProt Q13976): 85.5%
Cyclin-dependent kinase 9, with cyclin T1 (CDK9, Homo sapiens, UniProt P50750): 87%
CHEK1 (Homo sapiens, UniProt O14757): 38.9%
IRAK4 (Homo sapiens, UniProt Q9NWZ3): 63.2%
LRRK2 (Homo sapiens, UniProt Q5S007): 30.1%
NEK4 (Homo sapiens, UniProt P51957): 32.6%
EPHA5 (Homo sapiens, UniProt P54756): 37.1%
MAPK13 (Homo sapiens, UniProt O15264): 91.2%
MAP3K10 (Homo sapiens, UniProt Q02779): 22.9%
LYN (Homo sapiens, UniProt P07948): 2.13%
MAP2K6 (Homo sapiens, UniProt P52564): 93.4%
STK38 (Homo sapiens, UniProt Q15208): 85.1%
MAPK12 (Homo sapiens, UniProt P53778): 99.9%
BTK (Homo sapiens, UniProt Q06187): 5.69%
WNK2 (Homo sapiens, UniProt Q9Y3S1): 94.2%

Sample 2
Target: Beta-1 adrenergic receptor (ADRB1, Homo sapiens, UniProt P08588)
UniProt P08588, sequence (whole entry, looked up): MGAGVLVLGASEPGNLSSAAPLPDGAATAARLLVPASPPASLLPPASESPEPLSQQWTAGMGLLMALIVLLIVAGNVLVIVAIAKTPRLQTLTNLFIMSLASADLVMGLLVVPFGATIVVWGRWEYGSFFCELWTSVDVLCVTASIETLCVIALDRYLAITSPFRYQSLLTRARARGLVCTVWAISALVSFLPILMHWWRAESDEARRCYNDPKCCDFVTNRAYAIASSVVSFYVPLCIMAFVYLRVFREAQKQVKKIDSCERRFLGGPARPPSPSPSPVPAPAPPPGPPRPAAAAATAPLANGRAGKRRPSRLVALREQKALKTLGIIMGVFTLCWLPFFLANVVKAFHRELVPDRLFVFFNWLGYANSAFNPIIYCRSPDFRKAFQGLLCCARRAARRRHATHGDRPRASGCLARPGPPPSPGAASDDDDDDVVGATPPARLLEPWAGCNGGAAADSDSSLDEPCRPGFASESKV
Action: agonist
Quantity: EC50
COc1ccc(CC(C)(C)NC[C@H](O)c2cc(O)cc3c2OCC(=O)N3)cc1: ≥ 100 µM
Cn1cc(-c2cnc(Nc3cccc(C(F)(F)F)c3)c3c2CCO3)cn1: ≥ 100 µM
Cc1ccc(-c2cc(C(=O)N3CCC(c4nc(C5CCOCC5)no4)C3)c3ccccc3n2)cc1C (centres unmarked): ≥ 100 µM
Cc1cc2c(-c3ccccc3C)nc(-c3c(C)noc3C)cc2[nH]1: 3.55 µM
OC(c1ccccc1)c1nc(Nc2ccc(F)cc2)n[nH]1 (centres unmarked): 44.7 µM
Cc1noc2c(-c3cnn(Cc4ccccc4)c3)cc(-c3cccnc3)nc12: ≥ 100 µM
OC(c1ccccc1)c1nc(Nc2ccccc2)n[nH]1 (centres unmarked): ≥ 100 µM
Cc1cccc(OCC(O)CNC(C)C)c1 (centres unmarked): 0.0148 µM
O=C1COc2ccc(-c3ccccc3)nc2CN1: ≥ 100 µM
CCOC(=O)c1ccc(NC(=O)N2Cc3nc[nH]c3C[C@H]2c2nc(C(C)C)no2)cc1: ≥ 100 µM
COc1ccccc1N1CCN(c2ccc3ccccc3n2)CC1: ≥ 100 µM
O=C(NCCc1nccc(-c2ccccc2)n1)c1ccc2cccc(F)c2n1: ≥ 100 µM
c1ccc2c(c1)OCC(CNCc1cnc(N3CCOCC3)nc1)O2 (centres unmarked): 22.4 µM
CN(C)c1ccc(/C=C/C2=CC(/C=C/c3ccc(N(C)C)cc3)=[O+][B-](F)(F)O2)cc1: ≥ 100 µM
COc1ccccc1N1CCC(CNC(=O)c2ccc(C)s2)C1 (centres unmarked): ≥ 100 µM

Sample 3
Target: DNA polymerase theta, helicase domain (POLQ, Homo sapiens, UniProt O75417)
UniProt O75417, sequence (whole entry, looked up): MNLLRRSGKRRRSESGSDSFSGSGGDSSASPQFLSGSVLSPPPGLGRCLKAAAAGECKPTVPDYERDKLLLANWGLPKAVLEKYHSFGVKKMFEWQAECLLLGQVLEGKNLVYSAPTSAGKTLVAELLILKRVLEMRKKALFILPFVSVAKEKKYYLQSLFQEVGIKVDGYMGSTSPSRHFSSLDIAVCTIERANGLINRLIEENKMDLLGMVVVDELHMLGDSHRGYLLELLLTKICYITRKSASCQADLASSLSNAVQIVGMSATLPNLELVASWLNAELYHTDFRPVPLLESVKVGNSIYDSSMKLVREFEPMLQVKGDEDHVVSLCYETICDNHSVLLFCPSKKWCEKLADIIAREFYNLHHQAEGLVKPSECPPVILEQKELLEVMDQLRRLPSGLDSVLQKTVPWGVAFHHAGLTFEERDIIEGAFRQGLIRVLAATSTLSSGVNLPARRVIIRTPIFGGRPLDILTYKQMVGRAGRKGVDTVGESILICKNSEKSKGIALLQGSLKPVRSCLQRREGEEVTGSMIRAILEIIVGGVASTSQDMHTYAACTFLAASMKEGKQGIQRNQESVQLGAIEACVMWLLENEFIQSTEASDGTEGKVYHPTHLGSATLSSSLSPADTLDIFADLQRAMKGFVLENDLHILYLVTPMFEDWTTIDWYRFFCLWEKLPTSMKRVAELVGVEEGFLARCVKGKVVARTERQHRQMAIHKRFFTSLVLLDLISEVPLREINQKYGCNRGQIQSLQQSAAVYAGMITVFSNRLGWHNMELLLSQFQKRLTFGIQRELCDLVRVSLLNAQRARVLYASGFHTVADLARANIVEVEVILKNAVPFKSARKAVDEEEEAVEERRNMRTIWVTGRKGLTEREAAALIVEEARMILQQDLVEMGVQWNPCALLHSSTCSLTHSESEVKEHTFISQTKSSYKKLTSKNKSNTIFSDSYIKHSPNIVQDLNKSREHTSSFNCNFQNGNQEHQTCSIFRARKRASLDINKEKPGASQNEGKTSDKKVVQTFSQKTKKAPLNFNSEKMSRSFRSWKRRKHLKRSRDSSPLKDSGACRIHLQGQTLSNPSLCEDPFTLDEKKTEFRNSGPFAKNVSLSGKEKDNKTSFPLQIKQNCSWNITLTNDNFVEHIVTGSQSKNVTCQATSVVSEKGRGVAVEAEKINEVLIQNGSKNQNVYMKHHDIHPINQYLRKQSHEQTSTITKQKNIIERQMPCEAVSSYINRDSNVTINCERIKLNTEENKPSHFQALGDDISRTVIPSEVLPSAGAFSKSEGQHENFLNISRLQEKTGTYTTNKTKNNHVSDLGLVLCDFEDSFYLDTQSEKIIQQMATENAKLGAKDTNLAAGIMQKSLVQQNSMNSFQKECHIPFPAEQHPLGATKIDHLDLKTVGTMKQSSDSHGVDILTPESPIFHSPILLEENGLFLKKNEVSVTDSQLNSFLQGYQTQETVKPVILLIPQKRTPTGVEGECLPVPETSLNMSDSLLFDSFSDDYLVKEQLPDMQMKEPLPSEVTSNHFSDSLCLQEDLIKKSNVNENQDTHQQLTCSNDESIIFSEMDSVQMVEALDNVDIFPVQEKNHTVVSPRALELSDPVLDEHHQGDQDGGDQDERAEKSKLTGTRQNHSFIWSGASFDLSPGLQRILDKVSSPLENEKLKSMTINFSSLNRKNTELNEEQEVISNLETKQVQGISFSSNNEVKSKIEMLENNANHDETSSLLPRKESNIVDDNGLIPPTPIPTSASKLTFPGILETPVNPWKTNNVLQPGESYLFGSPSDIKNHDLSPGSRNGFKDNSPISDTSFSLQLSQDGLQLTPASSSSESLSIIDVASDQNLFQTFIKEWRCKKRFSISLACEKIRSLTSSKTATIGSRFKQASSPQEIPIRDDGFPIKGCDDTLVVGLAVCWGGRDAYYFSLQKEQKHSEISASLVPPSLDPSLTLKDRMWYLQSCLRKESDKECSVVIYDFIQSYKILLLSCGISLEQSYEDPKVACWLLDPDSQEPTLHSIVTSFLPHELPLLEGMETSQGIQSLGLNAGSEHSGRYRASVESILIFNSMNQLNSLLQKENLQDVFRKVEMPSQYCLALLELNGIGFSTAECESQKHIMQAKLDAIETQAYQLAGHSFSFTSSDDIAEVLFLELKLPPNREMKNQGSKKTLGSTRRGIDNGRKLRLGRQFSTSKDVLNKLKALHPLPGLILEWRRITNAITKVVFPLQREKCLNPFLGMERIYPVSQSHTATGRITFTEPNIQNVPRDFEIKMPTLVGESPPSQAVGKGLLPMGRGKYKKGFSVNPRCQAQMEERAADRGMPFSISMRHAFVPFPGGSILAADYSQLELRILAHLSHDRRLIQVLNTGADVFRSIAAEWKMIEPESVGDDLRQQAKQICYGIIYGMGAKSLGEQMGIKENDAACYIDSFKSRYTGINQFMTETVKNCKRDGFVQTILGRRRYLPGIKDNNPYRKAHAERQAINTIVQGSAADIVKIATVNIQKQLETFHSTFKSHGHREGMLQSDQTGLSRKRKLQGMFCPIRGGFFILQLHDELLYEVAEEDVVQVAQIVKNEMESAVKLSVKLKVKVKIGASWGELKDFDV
Observed: enzyme activity
Tested at: concentration not given
Notes: without ssDNA
Quantity: remaining activity
CC(=O)Oc1cccc2c1C(=O)c1c(OC(C)=O)cc(C(=O)O)cc1C2=O: 58.9%
O=C(O)/C(=C/c1c(C(=O)O)[nH]c2cc(Cl)cc(Cl)c12)c1ccccc1: 39.2%
O=C(O)[C@]1(Cc2cccc(Nc3nccs3)n2)CC[C@@H](Oc2cccc(Cl)c2F)CC1: 51.1%
CC(=O)Oc1ccccc1C(=O)Nc1ncc([N+](=O)[O-])s1: 51.2%
O=C(Nc1ccccc1F)c1ccc2c(Cl)c3c(nc2c1)CCC3: 84.2%
CCCCCCCCCCC/C=C\C(C)(C)/C=C\CCCC(=O)O: 101%
CCc1ccc(/C=C2/SC(=S)NC2=O)cc1: 45%
CCOc1ccccc1NC(=O)CSc1ncc(S(=O)(=O)c2ccc(C(C)(C)C)cc2)c(=O)[nH]1: 71.4%
COc1ccc2c(c1)c(CC(=O)O)c(C)n2Cc1ccc(Cl)cc1: 64%
CCOc1cccc2c1N[C@@H](c1ccc(C(=O)O)cc1)[C@H]1CC=C[C@@H]21: 64.6%
O=C1c2c(O)ccc(O)c2C(=O)c2c(NCCNCCO)ccc(NCCNCCO)c21: 93.8%

Sample 4
SMILES: C[C@H](c1cccc(C#N)c1)n1cc(Cl)cc(C(N)=O)c1=N
Observed: cell-free assay
Method: competition with immobilised ligand
Tested at: 1 µM
Quantity: remaining binding
ITK (Homo sapiens, UniProt Q08881): 90%
MAP3K12 (Homo sapiens, UniProt Q12852): 100%
Ribosomal protein S6 kinase alpha-3, C-terminal kinase domain (RPS6KA3, Homo sapiens, UniProt P51812): 80%
HIPK4 (Homo sapiens, UniProt Q8NE63): 100%
FLT1 (Homo sapiens, UniProt P17948): 100%
HASPIN (Homo sapiens, UniProt Q8TF76): 91%
PIP4K2C (Homo sapiens, UniProt Q8TBX8): 100%
GRK4 (Homo sapiens, UniProt P32298): 100%
DSTYK (Homo sapiens, UniProt Q6XUX3): 83%
STK38L (Homo sapiens, UniProt Q9Y2H1): 68%
PHKG1 (Homo sapiens, UniProt Q16816): 100%
MAP3K19 (Homo sapiens, UniProt Q56UN5): 76%
Aurora kinase C (AURKC, Homo sapiens, UniProt Q9UQB9): 91%
MAP3K15 (Homo sapiens, UniProt Q6ZN16): 81%
FLT3 (Homo sapiens, UniProt P36888, K663Q): 100%
FLT3 (Homo sapiens, UniProt P36888, D835V/ITD): 100%
LATS2 (Homo sapiens, UniProt Q9NRM7): 84%
